Experimental data pooled from the literature.
Each numbered part is a random draw from the data of one study; scales do not carry over between parts.

Series 1 — technique: protein binding microarray; form: double-stranded DNA, one strand shown; sample: in vitro; concentration: not given; reference: not given; direction: higher = stronger binding
Target: Histone acetyltransferase KAT6A, winged helix 2, GST fusion (KAT6A, Homo sapiens, UniProt Q92794, residues 85-181)
Notes: 8-mer, flanks averaged, mean of 2 arrays, mostly near background
Target sequence (chain): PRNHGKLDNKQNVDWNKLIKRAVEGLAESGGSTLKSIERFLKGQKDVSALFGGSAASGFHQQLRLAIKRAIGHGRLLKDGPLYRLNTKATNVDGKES
Oligonucleotide	E-score
AGCTGAGA	-0.0354
ATTAGGTA	-0.0118
GTAGTTTA	0.0803
AGACTGGA	-0.13
CAACCTAA	0.134
CTATATTC	-0.0888
AGTGAAAA	0.148
AAGCGTCT	-0.153
ACATAGAA	-0.137
CTAGAGCC	-0.146
AGAAACAC	0.0723
AGATACCA	-0.106
ATTGTGAC	-0.0907
CACGTCTC	-0.173
AGACTCTA	-0.261
CTAACCAA	0.121
GAACCTCA	-0.0382
ATTCACTC	0.0852

Series 2 — technique: RNA Bind-n-Seq; form: RNA; sample: in vitro; concentration: 365 nM; reference: no-protein control; direction: higher = stronger binding
Target: RNA binding protein fox-1 homolog 2, RRM domain, GST-SBP tag (RBFOX2, Homo sapiens, UniProt O43251-10, residues 100-194)
Notes: natural RNA segment, single round, ends assumed
Shared flanks, not repeated: GGGAGUUCUACAGUCCGACGAUC … UGGAAUUCUCGGGUGCCAA
Residues (chain): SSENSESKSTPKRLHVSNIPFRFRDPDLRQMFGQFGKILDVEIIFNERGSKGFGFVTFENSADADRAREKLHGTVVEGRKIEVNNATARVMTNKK
Oligonucleotide	RBNS enrichment (R)
CCUGGGUCUGCACUCCCUCCCCUGUGCCUGACUAAGCCUUGUUCAUUGUUCUUUCAUCCUUACAAGGGACAGCCAGCCAAGGAGGAAAGGAGCCCAGCCCUGGGGAGGUG	0.491
AUGUACACAUGUCUGUCUACUGUGCUUUCAGACAUAGAUAAAGCAUGAUAAAGAUUAUUAUUUAAGAUAUACUUGUAUUUAUACCUCAGAUAUUCUUUCGGGUUUUGUAC	3.07
UUUUUGUUUGUUUGUUUUUUGUUUUUGUUUUUUGUUGUUUCCAAAAAUAAAAGAUGAGUUAUUUCACACGUACCAGAAGAGUCCCACAGGGUCUCGUCAGUUCUUUGACU	0.698
AGGCUGGUCUCAAACUUCUGACCUCAAGUGAUCUGCCCACCUUGGCCUCCCAAAGUGCUGGGAUUACAGGUGUAAGCCACUGCGCCCGGCCUUUUUAACUUUAAACAUGU	0.281
GGAAGAAAAGUAGUUCUGGUAUGUUUCAUUGAUCCCCAGAUACCUUCCAAUCUGGACAUGAUGGGGCUGAUUCCAGAUGGUUUUUCUGAAAUUUCAUUAAGGUAGGUCAG	0.343
CAGCUCAGUUCCCUAUGUUUAUGCUGUGUUGUUCCCACCUCAGUGCUGUCAGCCUUUGGGACAGUGGCUCUCAAAAGCCAAGAGCUCUUGGUUUAUCUGCACAGUACAAG	0.437
GGAAUUCCUUCAUUUUCUAUAAAAAUGUCAAAAAAAAGCAAUGCUACCUCCAGCCUUAGGUCUUUUGAACUGCCCACUGUUGAGAUGAGUUUUUCUUUUGCCAUACAAAG	0.48
CCAAGCUCUCUAGAGCAUCUGGACACAUGUUAACAAGCAUAGCCACUGACCUUAACCACAACCAUUAGCCAGAAGAUACUGCAUGCUCCCUUGUGUCUGGAGUAUUCUGU	0.62
AGCAGGCCACCAGCAGCAGCUGUGCAGCAUGGAACUCAGGCCAGGCUCCGAGGCUGGGGGAUCUGCUUGGAGUUUUCUGCCCCCCACCCCAAACUUCUGUCGAGGAGCAA	3.2
AAAAGCAACAGUAGCAGGGAAUUGAUCCACUUCUUAAUGCUUUCCUCCCUGGCAUGACCAUCCUGUCCUUUGUUAUUAUCCUGCAUUUUACGUCUUUGGAGGAACAGCUC	1.72
AUUUUGGCACCAGCGUCAAGACAAAUAAUAUCCUCUCCCAUUAUUUUCAUAAGUAACACAGAUUCCCUGAUUUUUAAAAACUAAAAAUACAGCUAAACCUUUCUUAUGUA	0.254
GUGAAAUCUCAGUAAGUUAUUUUGGAGUUUAUUAAAGGUUCACAUUUUAAGUACAACUUUUCAGGCUAGUUACUGUGAUGGACAUUGAGGUGUUUGUAGAACUGACUCUU	0.298

Series 3 — technique: RNA Bind-n-Seq; form: RNA; sample: in vitro; concentration: not given; reference: input RNA pool; direction: higher = stronger binding
Target: RING finger protein unkempt homolog, zinc fingers 1-6, GST-SBP tag (UNK, Homo sapiens, UniProt Q9C0B0, residues 30-357)
Notes: RNA with constant flanks, human and mouse sites, ends assumed
Shared flanks, not repeated: GGGAGUUCUACAGUCCGACGAUC … CAACAGAGGAUUGAGCAUCA
Target sequence (chain): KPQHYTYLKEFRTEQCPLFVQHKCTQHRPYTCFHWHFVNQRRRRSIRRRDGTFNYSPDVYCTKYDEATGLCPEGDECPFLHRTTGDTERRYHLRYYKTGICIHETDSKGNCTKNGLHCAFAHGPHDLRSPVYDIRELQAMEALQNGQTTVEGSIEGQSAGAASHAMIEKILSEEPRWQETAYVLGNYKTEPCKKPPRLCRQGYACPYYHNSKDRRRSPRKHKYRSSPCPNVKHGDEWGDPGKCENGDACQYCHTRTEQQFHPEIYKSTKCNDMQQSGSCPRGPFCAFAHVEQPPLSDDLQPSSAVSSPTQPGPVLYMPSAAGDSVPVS
Oligonucleotide	bound/input enrichment
AGUACGCGAGAGCGGCUUCUGUCUGCGCUGGAAGAUCUGGAGGUCUUGUCGAGGGAACUCAUAGAAAUGCUUGCAAUUUCAAGAAAUCAGAAGCUAUUACAGCUGGAAGAGGAAAACCAG	0.286 ratio
GGCAUGCAUGGAGGUGGUCCUGGUGGGCCCGGAGGUGGCCCCCACAGCUUCCCACACCCAUUACCCAGCCUGACAGGUGGGCAUGGUGGACAUCCCAUGCAGCACAACCCCAAUGGACCC	0.144 ratio
UUGGUGAUUGGCAGGAUCCUGGUAUCCGCUAACAGGUCAAAAUGCAGAUCUUCGUGAAAACCCUUACCGGCAAGACCAUCACCCUUGAGGUGGAGCCCAGUGACACCAUCGAAAAUGUGA	0.0847 ratio
GCUCUUACCCCAACUUUGUCCGAAACUUCCAUUGACAAGUUGAAGUUAUCAAGCCCUGAACUUCCCAAGCCAUGGGACAGUGGAGACCUGCCACUGGAUGAAGAGAAUCCUAACUCUCUU	0.362 ratio
AAAAUUCUUUACCCCAAAACACUGUUUUUACUUCGCGGAAACCAUGAAUGUAGGCACCUCACAGAGUAUUUCACGUUUAAACAAGAAUGUAAAAUAAAGUAUUCAGAACGCGUUUAUGAC	0.321 ratio
GGCAGGCCAGCACCUGGCUCAGUGUCAGUCUAUUUAUCAGAGGUGUAAAUAAUCCACACAUAGUUUUUCUCCUUUUAGAUUAUUUUGUAUUUGUUUAAAAAAUAUUUGUCAAAAUACAAA	34.1 ratio
CAACCUCAGAGCCCUGACUUCCUGGACAUCACCAACCCCAAAGCCGUAUUAGAAAACGCACUUAGGAACUUUGCCUGUCUGACCACCGGGGAUGUGAUUGCCAUCAACUAUAAUGAAAAG	2.47 ratio
AGUCUCACGAACGUAGGAAAUUCAUUUAGUGGCCCACCUAAUCCUUUAGUGUCUAGAUCUAGUAAGUUUCAGAACUCAUCAGUAGAAGAUGAUGAUGACGUUGUUUUUAUUGAACCUGUA	6.99 ratio
GCCUGGGAGAUUAACAGGAAACUUCCAAGAUGGAAACUUUGUCUUUCCCCAGAUAUAAUGUAGCUGAGAUUGUGAUUCAUAUUCGCAAUAAGAUCUUAACAGGAGCUGAUGGUAAAAACC	0.558 ratio
AAUCAGGCAAAGAAAGGUAGUGCAAGUUGUGGGACCAGUUUUCGAGGAACAGUUGGACGGACUAGAGAUUACACUGUUUUACAUCCAUCUUGCUUGUCAGUGUGUAAUGUUACCAUCCAG	0.192 ratio
UUCACCGCUCCCCACAGCUUUGCACCCCUUUCCUCCCCAUACACACACAAACCAUUUUAUUUUUUGGGCCAUUACCCCAUACCCCUUAUUGCUGCCAAAACCACAUGGGCUGGGGGCCAG	1.93 ratio

Series 4 — technique: protein-binding microarray; form: double-stranded DNA, one strand shown; sample: in vitro; concentration: 2540 nM top; notes: 60-bp whole probe; added: salmon DNA 0.4 mg/ml; reference: random background probes; direction: higher = stronger binding; shared flanks, not repeated: GCCTAGCAC … GTCTTGATTCGCTTGACGCTGCTG
Target: Interferon regulatory factor 3, full length, phosphomimetic (IRF3, Homo sapiens, UniProt Q14653, residues 1-427, S386D/S396D/S398D/S402D/T404D/S405D)
Residues (chain): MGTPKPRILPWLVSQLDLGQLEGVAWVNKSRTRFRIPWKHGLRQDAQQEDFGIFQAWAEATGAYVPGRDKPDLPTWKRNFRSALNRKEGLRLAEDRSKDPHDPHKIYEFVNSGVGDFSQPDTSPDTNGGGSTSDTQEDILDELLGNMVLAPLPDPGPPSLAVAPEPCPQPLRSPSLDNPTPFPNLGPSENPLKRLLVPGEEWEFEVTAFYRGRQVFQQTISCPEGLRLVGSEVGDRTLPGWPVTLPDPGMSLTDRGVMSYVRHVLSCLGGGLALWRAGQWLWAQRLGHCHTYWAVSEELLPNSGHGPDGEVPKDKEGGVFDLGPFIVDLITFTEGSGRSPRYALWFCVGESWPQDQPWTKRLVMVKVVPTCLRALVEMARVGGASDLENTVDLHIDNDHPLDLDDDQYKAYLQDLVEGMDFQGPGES
Oligonucleotide	fitted relative affinity [z-score]
GACGATATCGGGTTTCGACACGTGCTA	1.03
TCAGTTACGGAATTTCCCACTGTGCTA	1.58
TGACAGCAGGAACATGGGCTGTGCTAG	-0.914
GACTTTTTAGATATCTTTTTGTGCTAG	1.23
GCCGGTTCCCTTTTCCTGACGTGCTAG	6.08
GACGGTCACGGTCTCGGGACGTGCTAG	-0.131
TTAGAACTGGGGTATCAATTAGTGCTA	-0.526
GACGGACTGGACTTTTGGGACGTGCTA	-0.582
TACGGTCTCCTTATCCTGACGTGCTAG	2.8
GACGGTTTCGGGTATCCGGACGTGCTA	4.94
GACGGGCTGGGGACTGGGGACGTGCTA	-1.21
CCACATCTCTGTCCGTGCTCGTGCTAG	0.861
TTAGGTATCTTACTGCTTTAGTGCTAG	0.137
TTAGGTCTCGGGCTGGGTTAGTGCTAG	-0.973
AATACCTTCGAGTCTGCAACAGTGCTA	0.147
GACGGTTTACTTTCCCTGACGTGCTAG	3.63
TTAGGTTTCGACTTTCGGTCAGTGCTA	3.83
GACGGACTGAGTTTCGAGACGTGCTAG	1.03
TGAGGTATCGGACTGGGTTAGTGCTAG	0.546
TTAGCACTGAGTCTCGATTAGTGCTAG	-0.406
TTAGGCTTCGACTTTCGGTTAGTGCTA	0.863
GACCGTCTCCTTTTCCTGACGTGCTAG	4.18
GACGGTTTCGGTGCCGGGACGTGCTAG	4.93
GACGGTCTCCTTTCCCTGACGTGCTAG	3.98
TTAGATTTCAGTCTCGGTTAGTGCTAG	2.65
